Experimental data of several laboratories.
Protocols differ between the studies behind these lines. Numbers after ± are the reported error.

Compound = N=C(N)NCCC[C@H](NC(=O)CON=C[C@H](F)[C@@H](O)[C@H](O)[C@H](O)CO)C(=O)NCC(=O)N[C@@H](CC(=O)O)C(=O)O [fluorine-18 labelled]; system = nude mice U-87 MG tumour, intestine; setting = intravenous, 0.5 h; tissue uptake = 0.32 ± 0.03 %ID/g
Compound = O=C([O-])CN1CCN(CC(=O)[O-])CCN(CC(=O)[O-])CCN(CC(=O)[O-])CC1.[64Cu+2]; system = healthy athymic nude mice, heart; setting = intravenous, 1 h; tissue uptake = 0.37 %ID/g
Compound = CCCC[C@H](NC(=O)CNC(=O)CNC(=O)CN1CCN(CC(=O)O)CCN(CC(=O)O)CCN(CC(=O)O)CC1)C(=O)N[C@H]1CC(=O)NCCCC[C@@H](C(N)=O)NC(=O)[C@H](Cc2c[nH]c3ccccc23)NC(=O)[C@H](CCCNC(=N)N)NC(=O)[C@@H](Cc2ccccc2)NC(=O)[C@H](Cc2c[nH]cn2)NC1=O [gallium-67 labelled]; system = C57 mice, female, B16/F1 melanoma, intestines; setting = intravenous, 0.037 MBq, 4 h; tissue uptake = 0.98 ± 0.18 %ID
Compound = CC(C)[C@H](NC(=O)[C@@H]1CCCN1C(=O)[C@H](CCCNC(=N)N)NC(=O)[C@H](CS)NC(=O)[C@H](Cc1c[nH]c2ccccc12)NC(=O)[C@H](CCCNC(=N)N)NC(=O)[C@@H](Cc1ccccc1)NC(=O)[C@H](Cc1c[nH]cn1)NC(=O)[C@H](CCC(=O)O)NC(=O)[C@H](CS)NC(=O)[C@H](CS)NC(=O)[C@@H]1CC(=O)N[C@@H](CCCNC(=N)N)C(=O)NCC(=O)N[C@@H](CC(=O)O)C(=O)N[C@H](Cc2ccc(O)cc2)C(=O)N1)C(N)=O [technetium-99m labelled]; system = C57 mice B16/F1 melanoma female, kidneys; setting = iv, 0.037 MBq, 4 h; tissue uptake = 16 ± 2.47 %ID/g
Compound = O=C([O-])c1cccc(CN(CCN(Cc2cn(Cc3ccccc3)nn2)Cc2cccc(C(=O)[O-])n2)Cc2cn(Cc3ccccc3)nn2)n1.[64Cu+2]; system = healthy athymic nude mice, muscle; setting = intravenous, 4 h; tissue uptake = 0.47 %ID/g
Compound = CN1C(=O)[C@@H](Cc2ccc(O)c(I)c2)NC(=O)CNC(=O)[C@H](Cc2ccc3ccccc3c2)NC(=O)[C@H](CCCNC(=N)N)NC(=O)[C@H]1CCCNC(=O)c1ccc(CNC(=O)CN2CCN(CC(=O)O)CCN(CC(=O)O)CCN(CC(=O)O)CC2)cc1 [lutetium-177 labelled]; test = measured: 177Lu radioactivity; system = female CB-17 SCID mice, Daudi xenograft, stomach; setting = intravenous, 0.16 nmol per mouse, 96 h; tissue uptake = 0.1 ± 0.01 %ID/g
Compound = CCCC[C@H](NC(=O)CNC(=O)CNC(=O)CN1CCN(CC(=O)O)CCN(CC(=O)O)CC1)C(=O)N[C@H]1CC(=O)NCCCC[C@@H](C(N)=O)NC(=O)[C@H](Cc2c[nH]c3ccccc23)NC(=O)[C@H](CCCNC(=N)N)NC(=O)[C@@H](Cc2ccccc2)NC(=O)[C@H](Cc2c[nH]cn2)NC1=O [gallium-67 labelled]; system = female C57 mice, B16/F1 melanoma, pancreas; setting = intravenous, 0.037 MBq, 4 h; tissue uptake = 0.36 ± 0.04 %ID/g
Compound = CCCC[C@@H]1NC(=O)[C@@H](NC(=O)[C@H](CCC(=O)O)NC(=O)CNC(=O)CN2CCN(CC(=O)O)CCN(CC(=O)O)CCN(CC(=O)O)CC2)CCCCNC(=O)C[C@@H](C(N)=O)NC(=O)[C@H](C(C)C)NC(=O)[C@@H]2CCCN2C(=O)[C@H](CCCNC(=N)N)NC(=O)CNC(=O)[C@H](Cc2c[nH]c3ccccc23)NC(=O)[C@H](CCCNC(=N)N)NC(=O)[C@@H](Cc2ccccc2)NC(=O)[C@H](Cc2c[nH]cn2)NC(=O)[C@H](CCC(=O)O)NC1=O [gallium-67 labelled]; system = normal C57 mice, skin; setting = intravenous, 0.037 MBq/mouse, 2 h; tissue uptake = 0.5 ± 0.09 %ID/g
Compound = NC12CNCCNCC(NCc3ccc(CNC(=O)CCCC(=O)NCc4ccc(-c5nncnn5)cc4)cc3)(CNCCNC1)CNCCNC2.[64Cu+2]; system = athymic nude mice SW1222 xenograft, blood; setting = 4 h post injection, 24 h accumulation interval, added: huA33-TCO pretargeting; tissue uptake = 4 ± 0.37 %ID/g
Compound = CCCC[C@H](NC(=O)CN1CCC(NC(=O)CN2CCN(CC(=O)O)CCN(CC(=O)O)CCN(CC(=O)O)CC2)CC1)C(=O)N[C@H]1CC(=O)NCCCC[C@@H](C(N)=O)NC(=O)[C@H](Cc2c[nH]c3ccccc23)NC(=O)[C@H](CCCNC(=N)N)NC(=O)[C@@H](Cc2ccccc2)NC(=O)[C@H](Cc2c[nH]cn2)NC1=O [gallium-68 labelled]; system = C57BL/6J mice male B16-F10 tumour, bone; setting = 2 h post injection, unblocked; tissue uptake = 0.6 ± 0.2 %ID/g
